Published values of several laboratories.
Each line is one published result; not all experiments were run side by side. Several values in a cell are separate wells, animals, samples, runs or records.

Structure (SMILES)	species	medium	route	dose	notes	half-life
Cc1cc(N)nc(CC2CNCC2OCCNCC(F)(F)c2cccc(F)c2)c1 (centres unmarked)	rat	plasma	intravenous	1 mg/kg		7.5 h
Cc1cccc(Cn2ncc3c4cc(F)c(CN(C)C)cc4n(C)c3c2=O)n1	rat	plasma	oral	10 mg/kg		9.9 h
C[Si]1(C[C@H](CN)CC(=O)O)CCCC1	male Sprague-Dawley rat	plasma	oral	100 mg/kg	single dose	2.23 h
COc1ccc(S(=O)(=O)N2CCc3ccccc3C2)cc1N1CCN(C(=O)c2ccc(F)cc2C(F)(F)F)CC1	rat	brain	intravenous	10 mg/kg	single dose	0.47 h
CC(=O)Oc1c2c(c3ccc4c(c3c1OC(C)=O)C=CC(=O)C4(C)C)OC[C@@H]2C	female Sprague-Dawley rat	serum	intravenous	10 mg/kg		1.82 h
O=C(N[C@@H](CC1CCCCC1)C(=O)N[C@@H](C[C@H]1CCNC1=O)C(=O)C(=O)NC1CC1)OCc1cccc(Cl)c1	female Sprague-Dawley rat	plasma	oral	10 mg/kg		10.7 h
Cn1cc(-c2cc(N3CCCS3(=O)=O)ccc2N[C@H]2CC[C@H](C)CC2)c2cc[nH]c2c1=O	Sprague-Dawley rat	plasma	intravenous	1 mg/kg		1.09 h
Cc1ccc(OCC(=O)N(Cc2cccs2)c2ccn[nH]2)cc1	female Sprague-Dawley rat	plasma	oral	30 mg/kg	single dose	2.15 h
Cc1cc(CNCCCCCC(=O)NO)ccc1OCc1cccc(-c2ccccc2)c1C	rat	plasma	intravenous	10 mg/kg		8.36 h and 8.37 h
CNC(=O)N[C@]1(C)CCC[C@@]2(C)C3CC[C@@]4(C)C[C@]3(CCC21)CC4=O (single isomer, unassigned)	male Sprague-Dawley rat	plasma	oral	2 mg/kg		1.29 h
CSCOC1C(=O)C2(C)C(OCSC)CC3OCC3(OC(C)=O)C2C(OC(=O)c2ccccc2)C2(O)CC(OC(=O)C(O)C(C=C(C)C)NC(=O)OC(C)(C)C)C(C)=C1C2(C)C (centres unmarked)	female Sprague-Dawley rat	plasma	intravenous	2 mg/kg		6.1 h
CC(C)(C)C(=O)Nc1ccc2[nH]c(CN3CCC(N(CCCN4CCOCC4)CC4OC(n5cnc6c(N)ncnc65)C(O)C4O)CC3)nc2c1 (centres unmarked)	male Sprague-Dawley rat	plasma	intraperitoneal	20 mg/kg		1.93 h
N=C(N)NCCC[C@H](NC(=O)[C@@H]1CCCN1C(=O)[C@H](Cc1ccccc1)NC(=O)[C@@H]1CCCN1C(=O)[C@H](Cc1c[nH]cn1)NC(=O)[C@@H](N)Cc1ccccc1)C(=O)O	male Sprague-Dawley rat	plasma	oral	50 mg/kg		0.561 h
N[C@H](COc1ccccc1C(F)(F)F)c1ccccc1	rat	plasma	intravenous	5 mg/kg		3.8 h
Cc1cc(/C=C/C#N)cc(C)c1Oc1nc(NC2CCN(Cc3ccc(P(C)(C)=O)cc3)CC2)nc2ccsc12	male Sprague-Dawley rat	plasma	intravenous	2 mg/kg		0.6 h
OC1(C(F)(F)F)CCN(c2nc(Nc3ccnc(C(F)(F)F)c3)nc(-c3cccc(C(F)(F)F)n3)n2)C1 (centres unmarked)	Sprague-Dawley rat	plasma	intravenous	1 mg/kg		16.3 h
CC12CC3CC(C)(C1)CC(NC(=O)Nc1ccc(C(=O)N4CCC[C@H](C(N)=O)C4)cc1F)(C3)C2	Sprague-Dawley rat	plasma	intravenous	10 mg/kg		6.25 h
CC1(C)CC[C@]2(C(=O)O[C@@H]3O[C@H](CO[C@@H]4O[C@H](CO)[C@@H](O)[C@H](O)[C@H]4O)[C@@H](O)[C@H](O)[C@H]3O)CC[C@]3(C)C(=CC[C@@H]4[C@@]5(C)CC[C@H](O[C@@H]6OC[C@H](O)[C@H](O)[C@H]6O)[C@@](C)(CO)[C@@H]5CC[C@]43C)[C@@H]2C1	Sprague-Dawley rat	plasma	oral	150 mg/kg		31.6 h

Structure (SMILES)	species	medium	route	dose	notes	half-life
O=C(c1ccccc1)c1cc(O)c(-c2cc(Cl)cc(Cl)c2)c(O)c1	male Sprague-Dawley rat	plasma	intravenous	5 mg/kg	single dose	3.03 h
Nc1nc(Cl)nc2c1ncn2Cc1cc(OCC(F)F)cc(OC(F)F)c1	Sprague-Dawley rat	plasma	intravenous	2.5 mg/kg		5.37 h
COc1ccc(COc2c(OC)ccc3c2C[C@@H](C(=O)O)N(c2nc4ccc(F)cc4o2)C3)cc1	male Sprague-Dawley rat	plasma	intravenous	1 mg/kg		2.4 h
Cn1cc(-c2cc(N3CCCCS3(=O)=O)ccc2N[C@H]2CC[C@H](C)CC2)c2cc[nH]c2c1=O (stereo in doubt)	Sprague-Dawley rat	plasma	oral	3 mg/kg		1 h
Cc1nc(N[C@@H](C)c2ccc(-c3nc(C4CC4)no3)cc2)c2cc(C)oc2n1	rat	plasma	oral	10 mg/kg		9.7 h
Cc1cc(/C=C2\CN(C(C)C)C/C(=C\c3cc(C)c(O)c(C)c3)C2=O)cc(C)c1O	female Sprague-Dawley rat	plasma	intravenous	20 mg/kg		2.49 h
C[Si](C)(C)C[C@@H](CN)CC(=O)O	male Sprague-Dawley rat	plasma	oral	100 mg/kg	single dose	2.49 h
CC1(C)CNC(=O)c2ccccc21	rat	plasma	intravenous	1 mg/kg	single dose	2 h
N#Cc1cnc2cc(OCC3CCNCC3)c(F)cc2c1Nc1cc(F)c(OCc2cccc(Cl)n2)cc1Cl	male Sprague-Dawley rat	plasma	oral	100 mg/kg		8 h
Cc1cc(N2CCC(C#N)(C3(C)CC3)C2=O)cc(C(=O)NCc2cc(F)cc(-c3cnn(C)c3)c2)n1 (racemic)	male Sprague-Dawley rat	plasma	oral	3 mg/kg		7.2 h
COc1cc2ncnc(Oc3ccc(Nc4nccc5[nH]cc(-c6ccc(F)cc6)c(=O)c45)cc3F)c2cc1OC	male Sprague-Dawley rat	plasma	intravenous	5 mg/kg		16.8 h
O=C(Nc1nc2cc(C(F)(F)F)cc(NC3CC3)n2n1)c1cccnc1	male Sprague-Dawley rat	plasma	oral	5 mg/kg		5.2 h
COc1ccc2c(c1OCc1ccccc1)C[C@@H](C(=O)O)N(c1nc3ccc(C#N)cc3o1)C2	male Sprague-Dawley rat	plasma	intravenous	1 mg/kg		4.2 h
COC(=O)c1ccc2c(c1)NC(=O)/C2=C(\Nc1ccc2c(c1)CCN2C(=O)CN1CCOCC1)c1ccccc1	Sprague-Dawley rat	plasma	oral	10 mg/kg		4.81 h
C[Si]1(C)CNC(=O)c2ccccc21	rat	plasma	oral	5 mg/kg	single dose	2.8 h
C#Cc1cccc(Nc2ncnc3cc(OC)c(OCCCN4CCOCC4)cc23)c1	Sprague-Dawley rat	plasma	oral	40 mg/kg		3.73 h
CC12CC3CC(C)(C1)CC(NC(=O)Nc1ccc(C(=O)N4CCCC(C(N)=O)C4)cc1)(C3)C2 (centres unmarked)	Sprague-Dawley rat	plasma	oral	10 mg/kg		2.93 h

For quick reference, copied from above:
Structure (SMILES)	species	medium	route	dose	notes	half-life
Cc1cc(N2CCC(C#N)(C3(C)CC3)C2=O)cc(C(=O)NCc2cc(F)cc(-c3cnn(C)c3)c2)n1 (racemic)	male Sprague-Dawley rat	plasma	oral	3 mg/kg		7.2 h
COc1cc2ncnc(Oc3ccc(Nc4nccc5[nH]cc(-c6ccc(F)cc6)c(=O)c45)cc3F)c2cc1OC	male Sprague-Dawley rat	plasma	intravenous	5 mg/kg		16.8 h
O=C(Nc1nc2cc(C(F)(F)F)cc(NC3CC3)n2n1)c1cccnc1	male Sprague-Dawley rat	plasma	oral	5 mg/kg		5.2 h
COc1ccc2c(c1OCc1ccccc1)C[C@@H](C(=O)O)N(c1nc3ccc(C#N)cc3o1)C2	male Sprague-Dawley rat	plasma	intravenous	1 mg/kg		4.2 h
